Published values of several laboratories.
Lines come from different studies, so protocols differ. ± marks the error that the study gave.
Sequence of UniProt P02769 (whole entry, looked up): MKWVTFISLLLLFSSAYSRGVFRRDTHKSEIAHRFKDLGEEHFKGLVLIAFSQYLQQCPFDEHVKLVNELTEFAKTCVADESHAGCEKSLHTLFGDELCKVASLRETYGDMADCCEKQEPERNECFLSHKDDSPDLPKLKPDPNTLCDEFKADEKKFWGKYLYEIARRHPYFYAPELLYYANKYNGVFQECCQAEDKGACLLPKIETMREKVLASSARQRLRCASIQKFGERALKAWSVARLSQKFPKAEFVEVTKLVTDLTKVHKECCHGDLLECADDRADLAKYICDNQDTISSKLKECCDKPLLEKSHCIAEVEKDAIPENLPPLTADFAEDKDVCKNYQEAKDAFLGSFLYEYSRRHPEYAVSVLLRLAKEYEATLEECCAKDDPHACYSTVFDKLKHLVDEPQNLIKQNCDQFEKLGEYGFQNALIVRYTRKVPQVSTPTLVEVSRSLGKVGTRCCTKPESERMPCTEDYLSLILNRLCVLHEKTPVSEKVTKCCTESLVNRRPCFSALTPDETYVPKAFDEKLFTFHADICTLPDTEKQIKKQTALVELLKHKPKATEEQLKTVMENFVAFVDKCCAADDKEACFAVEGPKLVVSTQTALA

dmhA K162M (Campylobacter jejuni)  Km (Nc1nc2c(ncn2[C@@H]2O[C@H](COP(=O)(O)OP(=O)(O)O[C@H]3O[C@H]([C@H](O)CO)[C@@H](O)[C@H](O)[C@@H]3O)[C@@H](O)[C@H]2O)c(=O)[nH]1; steady-state kinetics; pH 7.5, 30 °C): 55 µM
SQETFSDLWKLLPENN  enrichment score (Saccharomyces cerevisiae; cell growth, competitive growth sequencing; peptide, no cyclin overexpression; peptide tiling library; direction not given): 0.176
dmhA S133T (Campylobacter jejuni)  kcat/Km (Nc1nc2c(ncn2[C@@H]2O[C@H](COP(=O)(O)OP(=O)(O)O[C@H]3O[C@H]([C@H](O)CO)[C@@H](O)[C@H](O)[C@@H]3O)[C@@H](O)[C@H]2O)c(=O)[nH]1; steady-state kinetics; pH 7.5, 30 °C): 7400 ± 700 M⁻¹ s⁻¹
hdhb G39D/R40L/R41N/T17A (Clostridium sardiniense)  Km (NC(=O)c1ccc[n+]([C@@H]2O[C@H](COP(=O)(O)OP(=O)(O)OC[C@H]3O[C@@H](n4cnc5c(N)ncnc54)[C@H](O)[C@@H]3O)[C@@H](O)[C@H]2O)c1; steady-state kinetics; pH 8, 25 °C, cofactor varied): 2830 µM
dmhA Y158F (Campylobacter jejuni)  kcat (Nc1nc2c(ncn2[C@@H]2O[C@H](COP(=O)(O)OP(=O)(O)O[C@H]3O[C@H]([C@H](O)CO)[C@@H](O)[C@H](O)[C@@H]3O)[C@@H](O)[C@H]2O)c(=O)[nH]1; steady-state kinetics; pH 7.5, 30 °C): 0.008 ± 0.0004 s⁻¹
CCOc1cc(CC(=O)NC(CC(C)C)c2ccccc2N2CCCCC2)ccc1C(=O)O (centres unmarked)  Kd (Albumin (ALB, Bos taurus, UniProt P02769); binding, fluorescence; bovine serum albumin; 298 K, together with: ibuprofen (site II probe)): 293 µM
dmhA Y300F (Campylobacter jejuni)  Km (Nc1nc2c(ncn2[C@@H]2O[C@H](COP(=O)(O)OP(=O)(O)O[C@H]3O[C@H]([C@H](O)CO)[C@@H](O)[C@H](O)[C@@H]3O)[C@@H](O)[C@H]2O)c(=O)[nH]1; steady-state kinetics; pH 7.5, 30 °C): 15 µM
APP Aβ1-40, HiLyte Fluor 488 label (UniProt P05067)  Kd (microtubules, taxol-stabilized (Sus scrofa, UniProt P02550); fluorescence polarisation; quadratic fit, together with: taxol): 5.33 ± 0.83 µM
